Measurements gathered from unrelated publications.
Each numbered part is a random draw from the data of one study; scales do not carry over between parts.

Sample 1 — technique: protein-binding microarray; form: double-stranded DNA, one strand shown; matrix: in vitro; tested at: 940 nM top; setting: 60-bp whole probe; added: salmon DNA 0.4 mg/ml; reference: random background probes; reading: higher = stronger binding; all sequences stand within: GCCTAGCAC … GTCTTGATTCGCTTGACGCTGCTG
Target: Interferon regulatory factor 5, full length, phosphomimetic (IRF5, Homo sapiens, UniProt Q13568-2, residues 1-514, S451D/S453D/S456D/S462D)
Oligonucleotide | fitted relative affinity
TTTGGTATCGACACTGGGTTAGTGCTA | 7.67 z-score
TTTGGTTTCCTTTCCCTTTAGTGCTAG | 3.96 z-score
TCATTTCTATTTTCTGAACTGTGCTAG | 1.3 z-score
GAGAATTTCCACTTTGACTTGTGCTAG | 0.869 z-score
GACGGTATCGTTTTCCTGACGTGCTAG | 4.54 z-score

Sample 2 — technique: protein binding microarray; form: double-stranded DNA, one strand shown; matrix: in vitro; tested at: not given; reference: not given; reading: higher = stronger binding
Target: Histone acetyltransferase KAT6A, winged helix 2, GST fusion (KAT6A, Homo sapiens, UniProt Q92794, residues 85-181)
Setting: 8-mer, flanks averaged, mean of 2 arrays, mostly near background
Residues (chain): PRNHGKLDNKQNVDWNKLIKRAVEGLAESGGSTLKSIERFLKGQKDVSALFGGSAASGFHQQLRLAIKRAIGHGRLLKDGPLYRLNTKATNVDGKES
Oligonucleotide | E-score
ACATATCG | -0.136
ACAATGAA | 0.0391
GTGTTCAA | 0.0327
CCAGTTCA | -0.102
ACTCTGGG | 0.13
CGAACGAG | -0.142

Sample 3 — technique: universal PBM; form: double-stranded DNA, one strand shown; matrix: in vitro; tested at: not given; reading: higher = stronger binding
Target: Sal-like protein 4, full length isoform B (SALL4, Homo sapiens, UniProt Q9UJQ4-2, residues 1-616)
Setting: 8-mer, flanks averaged, mean of replicates
Oligonucleotide | E-score
CCTCTTGC | -0.224
CCCTGGAA | -0.241
AGGACCCC | -0.244
AAGGCCAT | 0.0037

Other studies, line by line
Molecule | target | assay | test system | conditions | scale | measurement | result
PhoQ, residues 284 288 289 292 302 303 TTCLQL | PhoP, residues 12 14 15 18 19 IFFTR (Escherichia coli, UniProt P23836) | Sort-seq, measured: YFP reporter | E. coli | PhoQ-PhoP variant library, added: 10 µM Mg2+ | reference: high Mg2+ state, higher = stronger signaling | fold induction | 2.63

Excerpt of the above (sample 2):
Oligonucleotide | E-score
GTGTTCAA | 0.0327
